Published values of several laboratories.
Numbered parts are unrelated; each lists some results of a single study. Changes are numbered by the printed parent chain.

Sample 1
Target: Centromere-binding protein 1, full length, His-tagged (CBF1, Saccharomyces cerevisiae, UniProt P17106, residues 1-351)
Sequence of UniProt P17106 (whole entry, looked up): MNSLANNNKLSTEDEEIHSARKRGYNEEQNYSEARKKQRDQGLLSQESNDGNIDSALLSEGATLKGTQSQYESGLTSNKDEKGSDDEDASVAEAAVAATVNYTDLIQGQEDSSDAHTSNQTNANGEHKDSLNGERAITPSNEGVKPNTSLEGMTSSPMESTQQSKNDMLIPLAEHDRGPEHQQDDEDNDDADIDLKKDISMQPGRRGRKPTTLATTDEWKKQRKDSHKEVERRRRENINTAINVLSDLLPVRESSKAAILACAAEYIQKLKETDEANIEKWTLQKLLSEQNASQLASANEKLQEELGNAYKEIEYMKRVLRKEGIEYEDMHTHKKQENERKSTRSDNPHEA
Method: competition protein-binding microarray
Form: double-stranded DNA, one strand shown
Sample: in vitro
Tested at: 2 µM
Setting: whole 60-bp probe, lowest competitor level
With: Pho4 competitor, 0.05 µM
Reading: higher = stronger binding
Measurement: fluorescence intensity
TTCTTCTCCACCTTCCTCGTGATGGTCAGAGCCATCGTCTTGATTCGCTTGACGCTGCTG: 174 a.u.
ACCATACACTATCAAGCAATATTATACTTGTTCTTTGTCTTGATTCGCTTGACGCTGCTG: 81.7 a.u.
CTGCCTAACAGGATGCACATGTTTGTTTATTGCTGAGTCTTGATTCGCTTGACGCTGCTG: 187 a.u.
AAGCCACTTTTCCATCACGTTTCTTAGCGTTATTCCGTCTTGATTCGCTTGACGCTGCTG: 385 a.u.
TCTACTGAAATATCGCACGTCACCGGTACCAACGGCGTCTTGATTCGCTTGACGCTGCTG: 79 a.u.
TTGCTCTTCTATTTGCACGTGAAGCATGCTGAAATCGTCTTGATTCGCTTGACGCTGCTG: 1420 a.u.
GGGATAGCACTCTGAAACGTGTTGAAGTCTCCTTCCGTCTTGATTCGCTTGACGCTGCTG: 86.6 a.u.
TTTAGGCCGCAGTGGGTCGTGCCAGACGGCAGCGATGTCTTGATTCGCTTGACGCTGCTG: 57.1 a.u.
CGCGCTGCCGGCCAAGACGTGATGGTGGTTGTCGACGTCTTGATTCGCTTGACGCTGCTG: 68.3 a.u.
TGTAATAGTTGCCATCACGTCGACAGCTTCAATGTTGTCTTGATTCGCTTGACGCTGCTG: 109 a.u.
AGATGATACTGTTTGCACGCAAATATAGGCTTGATTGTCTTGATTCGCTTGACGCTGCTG: 78.5 a.u.
CCGCCCTTCAAAGTCCTCGTGCTGTGTATCAATTCCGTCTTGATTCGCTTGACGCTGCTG: 137 a.u.
GTCTTGTCTCATTGAATAGTGGGTGTCCCCACTTCAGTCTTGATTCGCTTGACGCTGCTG: 76.7 a.u.
TATTAGATAACTTAGCACGTGAAAAAGAAACGTTTTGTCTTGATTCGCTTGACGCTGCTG: 2150 a.u.
GTCAAACTCCAAAGACACGTGCTCCCCTCGGCACCAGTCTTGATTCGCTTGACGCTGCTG: 1470 a.u.
CTAACGAAGGTTTGGGTAGTGGGTGACAAGCCAAGTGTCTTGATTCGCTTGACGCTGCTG: 66.5 a.u.
ATGAAACCTAAGTCCCACGTGTCGGTTAAATGGCCAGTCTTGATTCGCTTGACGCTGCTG: 1150 a.u.
GCCATGTTTATTAAACTCGTGTATCCATAAGGACTCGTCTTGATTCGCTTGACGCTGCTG: 111 a.u.
GAGGTACCGATAGATCTCGTGGTGATGGTTACGTTGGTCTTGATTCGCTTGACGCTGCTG: 123 a.u.

Sample 2
Target: RING finger protein unkempt homolog, zinc fingers 1-6, GST-SBP tag (UNK, Homo sapiens, UniProt Q9C0B0, residues 30-357)
Method: RNA Bind-n-Seq
Form: RNA
Sample: in vitro
Tested at: not given
Setting: RNA with constant flanks, human and mouse sites, ends assumed
Reference: input RNA pool
Reading: higher = stronger binding
Measurement: bound/input enrichment
Residues (chain): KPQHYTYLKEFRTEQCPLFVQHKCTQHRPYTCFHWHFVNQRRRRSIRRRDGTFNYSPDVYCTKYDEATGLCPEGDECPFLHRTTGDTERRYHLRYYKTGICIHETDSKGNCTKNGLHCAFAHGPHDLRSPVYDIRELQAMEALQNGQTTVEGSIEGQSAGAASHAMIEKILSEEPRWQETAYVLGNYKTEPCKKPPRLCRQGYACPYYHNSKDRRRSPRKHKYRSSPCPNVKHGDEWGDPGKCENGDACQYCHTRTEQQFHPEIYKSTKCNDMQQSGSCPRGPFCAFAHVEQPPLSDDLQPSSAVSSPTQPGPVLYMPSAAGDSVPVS
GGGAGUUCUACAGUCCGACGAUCAAACCUGUGGGCUUUGGAGAAGAGUUCGACGAGGAUGAGCUCAUGGCAGAGUUGGAGGAACUUGAACAAGAGGAGUUGGACAAGAAUUUGUUGGAGAUCAGUGGGCCCGAAACAGUCCCUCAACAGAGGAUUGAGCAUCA: 0.311 ratio
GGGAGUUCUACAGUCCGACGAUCCAGUCUUUAAGUAUGCCAGCAUCUCUUGGAAGGAUGAACCAGGGUACUGCACGCCUUGCUAGUUUAAUGAAUCUUGGAAUGAGUUCUUCAUUGAAUCAACAAGGAGCUCAUAGUGCACUGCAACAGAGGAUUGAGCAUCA: 0.173 ratio
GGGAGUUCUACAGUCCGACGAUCAUCCUUAUUAGUCAAAUAACGCUAUUCUUUUGUGGUUCUAGACCCUGGCUUCUAUCUCCCUGUGAUUUGUUUUAAUGCUGAAAUGACUUGGCUAUCCAAAGCUUCUAGUCUAGAGGUCUGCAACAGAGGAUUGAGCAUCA: 1.64 ratio
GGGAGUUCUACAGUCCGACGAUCCUACAGGAGGAACUGGACUGCCAAGGAGAUGAGGAGGAAGAGGAGGAGGACGGAAGCAGUUUCUGCAGUGGAGCCACUGAUUCUAGCACCCAAAGCCUGGCUCCCAGUGAAUCGGAUGAGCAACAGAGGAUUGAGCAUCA: 0.0636 ratio
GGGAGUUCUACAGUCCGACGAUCGUAAAGAGUUAAAGACUAUGUGAAGGAUUGUAUAUUUAAGUUAUUGAAAUUCUGAAACUGUAGUAAUCUAAAAUGUGUGAGUUGUGGGCUGCAGAGAAGACUCAGCCAGUAAAGGCACCUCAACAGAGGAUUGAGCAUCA: 1.26 ratio
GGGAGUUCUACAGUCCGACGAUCGGCGCCUUUGCUUUGCCCAUUCUAAACGCACUGCUGGAGACCCCGCAGCGUUUGUUUGCCCUAGUUCUUACCCCGACUCGGGAGCUGGCCUUUCAGAUCUCAGAGCAGUUUGAAGCCCUGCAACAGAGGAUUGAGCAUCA: 0.179 ratio
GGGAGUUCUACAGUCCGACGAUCCAAAAUGCUUCAAGUGAUAACCAAGGAAUUCAAUUAAGUGCAGUUCAAGCUGCUAGGAAGCUUUUAUCCAGUGAUCGAAAUCCACCAAUUGAUGACUUAAUAAAAUCUGGAAUAUUGCCUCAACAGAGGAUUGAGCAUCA: 0.333 ratio
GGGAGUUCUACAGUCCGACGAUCACUUAAUAAAGGUUGAUUUUGCUUUAUAUUGGGAGCUGAGCCACACCUCCCCUUAUAACUCUAUUGGUCAGUAAUGGUCAGUUUGUGGCUGUUAGGAAAAUGUUGCCUUUUAGCAUUCCACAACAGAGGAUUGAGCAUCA: 0.749 ratio

Sample 3
Target: CCNB3, cyclin fold, Cln2 fusion (human)
Method: yeast growth competition, sequencing
Sample: yeast
Setting: weak parent motif
Reference: not given
Reading: higher = stronger binding
Measurement: normalised enrichment score
Starting sequence: ITGB3BP docking peptide (human); MPVKRSLKLDGLL; partner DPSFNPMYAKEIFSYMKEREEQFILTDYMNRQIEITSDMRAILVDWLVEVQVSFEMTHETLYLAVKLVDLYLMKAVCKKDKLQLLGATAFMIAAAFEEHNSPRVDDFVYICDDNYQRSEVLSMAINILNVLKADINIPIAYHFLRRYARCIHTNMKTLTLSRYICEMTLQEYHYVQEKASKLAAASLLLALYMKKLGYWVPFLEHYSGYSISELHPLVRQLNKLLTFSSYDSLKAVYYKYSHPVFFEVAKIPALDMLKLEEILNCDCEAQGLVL
K4A: 0.385
L9A: 0.162
L9F: 1
K8A: 0.362
M1A: -0.0565
G11A: 0.243
L13A: 0.502

Sample 4
Target: Interferon regulatory factor 5, full length, phosphomimetic (IRF5, Homo sapiens, UniProt Q13568-2, residues 1-514, S451D/S453D/S456D/S462D)
Method: protein-binding microarray
Form: double-stranded DNA, one strand shown
Sample: in vitro
Tested at: 940 nM top
Setting: 60-bp whole probe
With: salmon DNA 0.4 mg/ml
Reference: random background probes
Reading: higher = stronger binding
Measurement: fitted relative affinity
Shared flanks, not repeated: GCCTAGCAC … GTCTTGATTCGCTTGACGCTGCTG
TCAACTTTCCATTTCTGACTGTGCTAG: 1.25 z-score
TTAGGACTGGCGACTGGGTTAGTGCTA: -0.452 z-score
GAACCTTGGGCTCTAGGTTCGTGCTAG: 0.0796 z-score
GACGGTCTGGGTCTCGGGACGTGCTAG: 0.0258 z-score
GACGATTTCGGGTATTGAGACGTGCTA: 0.929 z-score
TTTTTTTTTTTTTTGGAATGGTGCTAG: 0.817 z-score
TTAGATACCAGTCTCGATTAGTGCTAG: 2.81 z-score
TTAGGTCTCCTTCTCCTTGAGTGCTAG: 0.358 z-score
TTAGGTCTCCTTCTGCTTTAGTGCTAG: 0.532 z-score
TCAAGTATTTTTTTCCAACTGTGCTAG: 0.776 z-score
GACGGTATCGGACCGGGGACGTGCTAG: 2.38 z-score
GACGAACTGAGTATCGGGACGTGCTAG: 1.03 z-score
ACTTCTCCATTTTTCTAGTCGTGCTAG: 1.32 z-score
CTAGCTTCCATTTTCTGAACGTGCTAG: 0.669 z-score
CCTTGTACGTCGTTTCCCAAGGTGCTA: 0.0373 z-score
TCAAATTTCCCTCTCCCACTGTGCTAG: 0.944 z-score
GAGGATATCAGACTGGAGACGTGCTAG: -0.726 z-score
GACGGTATACTTTTCCTGACGTGCTAG: 0.148 z-score
AAGCCATTGGTCTTCACTTGGTGCTAG: -0.21 z-score

A few entries again (sample 4):
TTAGGTCTCCTTCTGCTTTAGTGCTAG: 0.532 z-score
TCAAGTATTTTTTTCCAACTGTGCTAG: 0.776 z-score
GACGGTATCGGACCGGGGACGTGCTAG: 2.38 z-score
GACGAACTGAGTATCGGGACGTGCTAG: 1.03 z-score
ACTTCTCCATTTTTCTAGTCGTGCTAG: 1.32 z-score
CTAGCTTCCATTTTCTGAACGTGCTAG: 0.669 z-score
CCTTGTACGTCGTTTCCCAAGGTGCTA: 0.0373 z-score
TCAAATTTCCCTCTCCCACTGTGCTAG: 0.944 z-score
GAGGATATCAGACTGGAGACGTGCTAG: -0.726 z-score
